Measured values gathered from unrelated publications.
Numbered parts are unrelated; each lists some results of a single study. Positions count from the first letter of the parent shown.

Series 1
Target: Fragile X messenger ribonucleoprotein 1, C-terminal low-complexity region (Fmr1, Mus musculus, UniProt P35922)
Method: RNA Bind-n-Seq
Form: RNA
Matrix: in vitro
Concentration: 200 nM
Setting: whole 134-nt RNA, ends assumed
Added: 150 mM KCl
Baseline: input library
Reading: higher = stronger binding
Endpoint: log2 enrichment
Constant ends, left off below: GGGAGUUCUACAGUCCGACGAUC … UGGAAUUCUCGGGUGUCAAGG
UGGCCCUGGUGGCAUGCGGGGAGGGAGAGGUGGCCUCAUGGAUCGUGGUGGUCCCGGUGGAAUGUUCAGAGGUGGCCGUGGUGGAGACAG: 0.798
AGUCCUGUGCUACACAUCGUAUGUACCGAAUCGGGGUGGGGUUUUUUUGGGGAGGGGAAAGUAUUAUGUUACGCCGUUCGGAUCUGCACU: 0.978
UCAAGUCCUGUGCUACACAUCGUAUGUACCGAAUCGGCCCGGGCCCGGGCCCGGGAAAGUAUUAUGUUACGCCGUUCGGAUCUGCACUUC: -0.719
ACCAUGCAGGUGGGCAUCUUUGGGAAGUGGGGCAAGGGGGGGAUAGGGAGGGGGGUAACACUUUGGGAACAGGUGCUCCCAGGUCGUUUC: 0.837
CCUGUGCUACACAUCGUAUGUACCGAAUCGGGGAAAAAAAGGGGUUUUUGGGGUUUGGGGAAAGUAUUAUGUUACGCCGUUCGGAUCUGC: 0.435
CUCAAGUCCUGUGCUACACAUCGUAUGUACCGAAUCGGGAGGGAAAGGGAGGGAAAGUAUUAUGUUACGCCGUUCGGAUCUGCACUUCCA: 1.16
UGGCCCUGGUGGCAUGCGGGGAGGAAGAGGUGGCCUCAUGGAUCGUGGUUGUCCCGGUGGAAUGUUCAGAGGUGGCCGUGGUGGAGACAG: 0.0483
UGCAGUCGAGCCAGCACCUGUUUCUGGACCUGCCUAAGGUAAGUGAGCUUUUCUCUCAACCUAGUUUUCAGGAGGCCUCUUCUGUCCCCU: 0.113
UGGCACUGGUGGCAUGCGGGGAGGAAGAGGUGGCCUCAUGGAUCGUGGUGGUCCCGGUGGAAUGUUCAGAGGUGGCCGUGGUGGAGACAG: 0.283
CCUCAAGUCCUGUGCUACACAUCGUAUGUACCGAAUCGGGUGGGGUGGUGGGAAAGUAUUAUGUUACGCCGUUCGGAUCUGCACUUCCAG: 1.43
ACCAUGCAGGUGGGCAUCUUUGGGAAGUGGGGCAAGGGGGGGAUAGGGAGGGGGGUAACACCUUGGGAACAGGUGGUCCCAGGUCGUUUC: 0.774
GUCCUGUGCUACACAUCGUAUGUACCGAAUCGGGGCCCCCGGCCCCCGGGGCCCCCGGGAAAGUAUUAUGUUACGCCGUUCGGAUCUGCA: -0.934
CACAGACAACACGCACCCACACAGACACAGAGGGAAGGGGUUGGGAUGGGGACAGGGUGCACAGCAGGGCGAGGUAGGACCCCAGCCCCU: 1.13
GUCCUGUGCUACACAUCGUAUGUACCGAAUCGGGGUUUUUGGGGUUUGGGGAAAGGGGAAAGUAUUAUGUUACGCCGUUCGGAUCUGCAC: 0.604

Series 2
Target: Histone acetyltransferase KAT6A, winged helix 2, GST fusion (KAT6A, Homo sapiens, UniProt Q92794, residues 85-181)
Method: protein binding microarray
Form: double-stranded DNA, one strand shown
Matrix: in vitro
Concentration: not given
Setting: 8-mer, flanks averaged, mean of 2 arrays, mostly near background
Baseline: not given
Reading: higher = stronger binding
Endpoint: E-score
Target sequence (chain): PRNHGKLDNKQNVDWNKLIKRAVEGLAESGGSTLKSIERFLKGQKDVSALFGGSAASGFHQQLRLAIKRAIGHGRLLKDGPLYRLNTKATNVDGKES
CCGTTGCG: 0.205
CTACTGTA: -0.179
CACAGCCG: 0.157
ACTTAGCT: -0.187
GGCATCTA: -0.0977
ATTTTTTA: 0.122
AGACGCTG: -0.169
CGGTACAA: -0.127
CATTGGTC: -0.129
AGGAGGAT: -0.0264
ACACTCAA: 0.126
CTCCTTAA: -0.0125
AAATCCTG: 0.111
CCGCGGAC: 0.116
TAGTTAAA: 0.108
AGTTGCCA: 0.106
GTTCATGA: -0.0315
CTACAGAA: -0.0437

Series 3
Target: Sal-like protein 4, full length isoform B (SALL4, Homo sapiens, UniProt Q9UJQ4-2, residues 1-616)
Method: universal PBM
Form: double-stranded DNA, one strand shown
Matrix: in vitro
Concentration: not given
Setting: 8-mer, flanks averaged, mean of replicates
Reading: higher = stronger binding
Endpoint: E-score
Target sequence (chain): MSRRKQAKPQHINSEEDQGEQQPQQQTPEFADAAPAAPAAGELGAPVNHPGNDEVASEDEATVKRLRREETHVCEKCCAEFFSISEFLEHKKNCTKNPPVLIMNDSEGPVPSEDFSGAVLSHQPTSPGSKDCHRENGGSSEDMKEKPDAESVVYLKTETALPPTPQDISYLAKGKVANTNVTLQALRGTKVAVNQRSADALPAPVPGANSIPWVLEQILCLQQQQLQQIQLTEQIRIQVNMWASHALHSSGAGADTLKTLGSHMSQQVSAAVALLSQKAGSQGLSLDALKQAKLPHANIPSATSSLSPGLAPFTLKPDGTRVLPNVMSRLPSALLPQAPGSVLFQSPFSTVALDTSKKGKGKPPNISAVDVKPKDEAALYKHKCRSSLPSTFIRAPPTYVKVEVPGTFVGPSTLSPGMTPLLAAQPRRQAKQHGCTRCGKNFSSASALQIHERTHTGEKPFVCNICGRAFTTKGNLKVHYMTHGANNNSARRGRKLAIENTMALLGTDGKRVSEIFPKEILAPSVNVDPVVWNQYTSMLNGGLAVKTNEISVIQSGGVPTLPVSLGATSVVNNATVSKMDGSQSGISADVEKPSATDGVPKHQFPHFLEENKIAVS
CAGGGCTC: -0.216
CCGTGAAC: -0.0973
GAGGTACC: -0.292
GAGAACAC: -0.145
AACAATAC: 0.229
ATCGCAGG: -0.0633
ATACTCGA: 0.0647
CGGGGCGA: -0.293
CTGCACCA: -0.161
AAAGGCTA: -0.0846
GGTGATTA: 0.127
AGCTAGCT: -0.0242
ATGTAGAG: 0.128
ACTGCCGA: -0.166
CCCGCTGA: -0.424
GACAGAAC: 0.0572
ACACCATC: 0.0754
ATGCACCC: -0.0511
CCTTGCTA: -0.0114
AAATGATG: 0.209
ACGCGCTG: -0.319
CTTCTCGA: -0.0118
CTACTGGA: -0.226
CCAGGGAC: -0.327
CCGCCGTC: -0.372

Series 4
Target: CCNB1, cyclin fold, Cln2 fusion (human)
Method: yeast growth competition, sequencing
Matrix: yeast
Setting: weak parent motif
Baseline: not given
Reading: higher = stronger binding
Endpoint: normalised enrichment score
Starting sequence: RBL1 docking peptide (human); GSAKRRLFGEDPP
R5G: -0.223
F8L: 0.147
G1M: 0.186
L7N: 1.19
G1K: 0.594
P12I: 0.733
R6P: -0.132
S2G: 0.734
R6M: -0.11
P12L: -0.511
D11N: 1.17
P12T: 0.847
E10V: 0.266
D11C: 0.791
G1P: 0.422

Series 5
Target: Interferon regulatory factor 7, full length, phosphomimetic (IRF7, Homo sapiens, UniProt Q92985, residues 1-503, S471D/S472D/S475D/S476D/S477D/S483D/S484D/S487D)
Method: protein-binding microarray
Form: double-stranded DNA, one strand shown
Matrix: in vitro
Concentration: 2200 nM top
Setting: 60-bp whole probe
Added: salmon DNA 0.4 mg/ml
Baseline: random background probes
Reading: higher = stronger binding
Endpoint: fitted relative affinity
Constant ends, left off below: GCCTAGCAC … GTCTTGATTCGCTTGACGCTGCTG
Residues (chain): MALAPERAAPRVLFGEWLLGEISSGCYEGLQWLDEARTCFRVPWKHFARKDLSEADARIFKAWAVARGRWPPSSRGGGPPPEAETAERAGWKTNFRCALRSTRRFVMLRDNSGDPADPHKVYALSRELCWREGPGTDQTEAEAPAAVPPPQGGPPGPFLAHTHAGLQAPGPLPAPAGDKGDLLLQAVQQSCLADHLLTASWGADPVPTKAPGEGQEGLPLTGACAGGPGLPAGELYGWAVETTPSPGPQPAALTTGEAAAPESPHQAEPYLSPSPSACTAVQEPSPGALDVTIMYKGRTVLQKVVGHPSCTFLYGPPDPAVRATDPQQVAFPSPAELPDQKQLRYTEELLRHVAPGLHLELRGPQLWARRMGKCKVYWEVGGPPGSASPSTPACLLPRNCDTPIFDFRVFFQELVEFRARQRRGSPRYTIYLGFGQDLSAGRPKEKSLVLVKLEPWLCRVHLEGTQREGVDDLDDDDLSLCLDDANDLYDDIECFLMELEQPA
GACGGACTGGACTATCGGAACGTGCTA: -0.433 z-score
TTAGGACTGGAATTTCGGTTAGTGCTA: 1.88 z-score
TCAATTATTGCTTCCTCACTGTGCTAG: 1.4 z-score
GACGATTTCAGTTCCGAGAGGTGCTAG: 1.5 z-score
TCATTTCTCCTTTCGGAACTGTGCTAG: 4.3 z-score
TGCCTTTTTTTTTTTTTCTGGTGCTAG: 1.55 z-score
GACTATATCGGGTTTCGAGACGTGCTA: 1.59 z-score
TTAGGTATCGACTTTCGGCTAGTGCTA: 2.08 z-score
GACGGTATCTGTATCGGGACGTGCTAG: 0.521 z-score
TCAATTTCTGTTTTTGCACTGTGCTAG: 3.99 z-score
TCAAGTTTTCTTTTCATACTGTGCTAG: 3.8 z-score
GTATGGATGTGTTTTAAATAGTGCTAG: 0.781 z-score
TTCTTTTCCATTTTGTGTTTGTGCTAG: 4.39 z-score
TTAGAACTGGGGACAGGATTAGTGCTA: -0.453 z-score
TTAGATTCCAGTGTCGATTAGTGCTAG: 0.402 z-score
GACGAACTGGGGTATCGTGACGTGCTA: 0.108 z-score
GACGATATCAGTATCGTGACGTGCTAG: 0.389 z-score

Series 6
Target: Prothrombin, mature alpha-thrombin (F2, Homo sapiens, UniProt P00734)
Method: aptamer microarray, sandwich
Form: DNA with 2'F-ANA
Matrix: in vitro
Concentration: 200 nM
Setting: whole 15-mer aptamer, many near background
Added: Cy3 exosite-II aptamer, 400 nM
Reading: higher = stronger binding
Endpoint: mean fluorescence intensity
Oligonucleotide: GGTTGGTGTGGTTGG
2'F-ANA at 8 9 10 12 14: 105 a.u.
2'F-ANA at 3 4 5 6 8 10 13 14: 84.7 a.u.
2'F-ANA at 1 2 4 9 11 14: 49.4 a.u.
2'F-ANA at 1 5 6 7 10 13 14 15: 44.9 a.u.
2'F-ANA at 1 2 3 4 5 7 11 13 14: 82.6 a.u.
2'F-ANA at 1 2 4 6 7 10 11 13: 49.3 a.u.
2'F-ANA at 4 5 8 10 12 13 14 15: 61.1 a.u.
2'F-ANA at 1 4 6 7 8 12 13 15: 252 a.u.
2'F-ANA at 6 8 13: 462 a.u.
2'F-ANA at 1 2 3 5 9 10 11 12 13 14: 50.7 a.u.
2'F-ANA at 4 5 6 8 9 10 12 13 14: 173 a.u.
2'F-ANA at 2 3 4 5 8 9 11 15: 143 a.u.
2'F-ANA at 1 3 4 6 9 10 12 13 14: 72.5 a.u.
2'F-ANA at 1 4 5 6 7 9 10 11 12 13 14 15: 59.9 a.u.
2'F-ANA at 1 2 3 5 7 8 9 12 14: 48.4 a.u.
2'F-ANA at 1 4 6 11 12 14: 53.2 a.u.
2'F-ANA at 1 2 4 5 6 8 10 11 12 13 15: 51.7 a.u.
2'F-ANA at 5 8 14: 42.1 a.u.
2'F-ANA at 3 6 8 9 12: 1040 a.u.
2'F-ANA at 2 9 10 11 12: 162 a.u.

Excerpt of the above (series 5):
GACGATTTCAGTTCCGAGAGGTGCTAG: 1.5 z-score
TCATTTCTCCTTTCGGAACTGTGCTAG: 4.3 z-score
TGCCTTTTTTTTTTTTTCTGGTGCTAG: 1.55 z-score
GACTATATCGGGTTTCGAGACGTGCTA: 1.59 z-score
TTAGGTATCGACTTTCGGCTAGTGCTA: 2.08 z-score
GACGGTATCTGTATCGGGACGTGCTAG: 0.521 z-score
TCAATTTCTGTTTTTGCACTGTGCTAG: 3.99 z-score
TCAAGTTTTCTTTTCATACTGTGCTAG: 3.8 z-score
GTATGGATGTGTTTTAAATAGTGCTAG: 0.781 z-score
TTCTTTTCCATTTTGTGTTTGTGCTAG: 4.39 z-score
TTAGAACTGGGGACAGGATTAGTGCTA: -0.453 z-score
TTAGATTCCAGTGTCGATTAGTGCTAG: 0.402 z-score
GACGAACTGGGGTATCGTGACGTGCTA: 0.108 z-score
GACGATATCAGTATCGTGACGTGCTAG: 0.389 z-score
